Literature values, collected from citations in different studies.
Numbers after ± are the reported error.

The chains behind the UniProt entries cited, without tags or fusion partners. Residues count along the entry.
UniProt P08253, 110-660 limits assumed: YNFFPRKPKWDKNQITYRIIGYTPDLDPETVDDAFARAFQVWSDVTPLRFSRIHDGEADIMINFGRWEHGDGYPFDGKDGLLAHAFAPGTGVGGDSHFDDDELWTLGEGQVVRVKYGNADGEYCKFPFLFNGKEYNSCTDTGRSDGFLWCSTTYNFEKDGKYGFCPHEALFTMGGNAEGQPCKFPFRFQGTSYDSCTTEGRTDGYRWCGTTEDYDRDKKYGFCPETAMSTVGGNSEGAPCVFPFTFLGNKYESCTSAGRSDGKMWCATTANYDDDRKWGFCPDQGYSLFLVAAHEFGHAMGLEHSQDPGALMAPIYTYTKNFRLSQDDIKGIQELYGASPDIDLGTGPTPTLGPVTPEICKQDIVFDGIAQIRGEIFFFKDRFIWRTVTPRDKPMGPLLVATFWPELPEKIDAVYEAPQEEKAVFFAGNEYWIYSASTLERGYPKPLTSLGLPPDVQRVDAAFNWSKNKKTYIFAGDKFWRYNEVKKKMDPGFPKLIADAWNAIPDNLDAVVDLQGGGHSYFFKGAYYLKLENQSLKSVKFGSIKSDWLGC
UniProt P17787, 26-502 limits assumed: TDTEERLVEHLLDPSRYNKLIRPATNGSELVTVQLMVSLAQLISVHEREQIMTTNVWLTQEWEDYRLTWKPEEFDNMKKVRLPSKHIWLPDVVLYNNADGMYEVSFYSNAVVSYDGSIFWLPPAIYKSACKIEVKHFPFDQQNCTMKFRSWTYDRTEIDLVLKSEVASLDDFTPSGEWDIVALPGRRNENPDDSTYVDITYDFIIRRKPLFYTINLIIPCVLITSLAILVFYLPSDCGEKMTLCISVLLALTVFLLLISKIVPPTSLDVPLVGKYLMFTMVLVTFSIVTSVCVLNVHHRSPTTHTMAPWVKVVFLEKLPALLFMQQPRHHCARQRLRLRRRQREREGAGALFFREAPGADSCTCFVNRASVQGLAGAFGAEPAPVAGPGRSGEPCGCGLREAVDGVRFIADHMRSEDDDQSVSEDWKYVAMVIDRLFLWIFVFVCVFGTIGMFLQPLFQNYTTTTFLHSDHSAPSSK
UniProt P43681, 29-627 limits assumed: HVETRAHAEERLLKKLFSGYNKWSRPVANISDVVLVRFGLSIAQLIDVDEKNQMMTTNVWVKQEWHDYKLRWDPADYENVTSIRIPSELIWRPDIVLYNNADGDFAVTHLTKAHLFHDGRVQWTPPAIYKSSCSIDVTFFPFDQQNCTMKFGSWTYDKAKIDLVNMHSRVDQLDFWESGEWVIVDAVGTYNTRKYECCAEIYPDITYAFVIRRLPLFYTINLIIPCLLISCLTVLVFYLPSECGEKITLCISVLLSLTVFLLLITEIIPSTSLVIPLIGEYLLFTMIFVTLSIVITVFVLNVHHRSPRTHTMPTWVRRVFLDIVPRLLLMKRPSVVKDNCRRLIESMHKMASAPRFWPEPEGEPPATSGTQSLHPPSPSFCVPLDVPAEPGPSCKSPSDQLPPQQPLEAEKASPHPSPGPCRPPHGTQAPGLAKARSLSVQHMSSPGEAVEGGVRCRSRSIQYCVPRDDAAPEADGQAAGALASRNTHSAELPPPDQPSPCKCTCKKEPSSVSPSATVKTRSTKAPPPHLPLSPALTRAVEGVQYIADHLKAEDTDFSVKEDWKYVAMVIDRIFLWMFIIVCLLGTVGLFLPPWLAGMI

`O=P(O)(O)C(O)(Cc1cnc2ccccn12)P(=O)(O)O` has an IC50 of over 70 µM (Plasmodium falciparum; parasite growth, inhibitor).
`CC(C)C[C@H](NC(=O)[C@@H]1CCCN1)C(=O)NCC(=O)N[C@H](C(=O)N[C@@H](CCCNC(=N)N)C(=O)O)C(C)C` has a kcat/Km of 14000 M⁻¹ s⁻¹ (72 kDa type IV collagenase (MMP2, Homo sapiens, UniProt P08253); substrate).
The IC50 of `CCCN(CCC)c1c([N+](=O)[O-])cc(S(=O)(=O)Nc2ccccc2)cc1[N+](=O)[O-]` is reported as 2.3 ± 0.5 µM (Leishmania donovani; cell growth; axenic amastigotes).
With `COCCC1CC1c1cncc(OC[C@@H]2CCN2)c1` (some centres unmarked) the efficacy was 71% (Neuronal acetylcholine receptor; alpha4/beta2 (Homo sapiens, UniProt P17787+P43681); receptor inactivation; SH-EP1 expressing human α4β2).
`Cc1cc(Nc2ccc(S(F)(F)(F)(F)F)cc2)n2nc(C(C)(F)F)nc2n1` has an ED90 of 3 mg/kg/day (Plasmodium falciparum; mouse; twice daily dosing).

For quick reference, copied from above:
The IC50 of `CCCN(CCC)c1c([N+](=O)[O-])cc(S(=O)(=O)Nc2ccccc2)cc1[N+](=O)[O-]` is reported as 2.3 ± 0.5 µM (Leishmania donovani; cell growth; axenic amastigotes).
